Published values collected from several papers.
Parts stem from different laboratories: compare values within a part only. Changes are numbered by the printed parent chain.

Study 1
Target: CCND3, cyclin fold, Cln2 fusion (human)
Technique: yeast growth competition, sequencing
Sample: yeast
Notes: strong parent motif
Baseline: not given
Direction: higher = stronger binding
Starting sequence: INSM1 docking peptide (human); PKAIRKLHFEDEV; partner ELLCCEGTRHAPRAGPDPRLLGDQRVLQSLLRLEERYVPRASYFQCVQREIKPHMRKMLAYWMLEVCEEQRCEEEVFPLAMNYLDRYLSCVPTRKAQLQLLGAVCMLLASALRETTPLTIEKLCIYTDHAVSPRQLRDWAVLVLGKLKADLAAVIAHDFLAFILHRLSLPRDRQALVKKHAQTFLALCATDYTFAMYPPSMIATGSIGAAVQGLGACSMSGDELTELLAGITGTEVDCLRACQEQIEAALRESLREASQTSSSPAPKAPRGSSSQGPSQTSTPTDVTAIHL
Change	normalised enrichment score
I4V	0.641
L7M	0.308
R5D	0.0376
H8W	0.703
I4R	1.05
F9R	0.0236
K6C	0.58
K2D	0.3
R5C	0.542
H8K	0.922
L7H	-0.078
F9E	0.178
F9Q	0.0235
D11G	0.183
R5F	-0.0774
K2E	-0.0117
D11N	0.657
L7A	0.21
E10Q	0.886
I4E	0.165
E10H	0.65
F9M	0.262
H8Y	1.5
I4D	-0.00669
A3Q	0.0965

Study 2
Target: CREB3L2, bZIP domain (human)
Technique: DHFR protein complementation
Sample: yeast
Notes: single substitutions, most at no-binding floor
Baseline: wild-type JUN-FOS pair
Direction: higher = stronger binding
Starting sequence: JUN, bZIP domain (human); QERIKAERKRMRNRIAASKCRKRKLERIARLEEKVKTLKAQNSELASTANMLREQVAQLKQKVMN; partner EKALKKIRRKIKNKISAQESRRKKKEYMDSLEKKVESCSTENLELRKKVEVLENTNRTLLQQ
Change	binding fitness [natural log]
R53P	-1.55
T48F	-1.57
E44Y	-1.45
M51H	-1.52
L31E	-1.51
Q41P	-1.52
T48D	-1.06
R53M	-1.46
R30P	-1.49
A46I	-1.32
V35T	-1.47
E54L	-1.46
R53H	-1.31
K34S	-1.45
A49F	-1.51

Study 3
Target: RING finger protein unkempt homolog, zinc fingers 1-6, SBP tag (UNK, Homo sapiens, UniProt Q9C0B0, residues 30-357)
Chain of UniProt Q9C0B0 (30-357, looked up): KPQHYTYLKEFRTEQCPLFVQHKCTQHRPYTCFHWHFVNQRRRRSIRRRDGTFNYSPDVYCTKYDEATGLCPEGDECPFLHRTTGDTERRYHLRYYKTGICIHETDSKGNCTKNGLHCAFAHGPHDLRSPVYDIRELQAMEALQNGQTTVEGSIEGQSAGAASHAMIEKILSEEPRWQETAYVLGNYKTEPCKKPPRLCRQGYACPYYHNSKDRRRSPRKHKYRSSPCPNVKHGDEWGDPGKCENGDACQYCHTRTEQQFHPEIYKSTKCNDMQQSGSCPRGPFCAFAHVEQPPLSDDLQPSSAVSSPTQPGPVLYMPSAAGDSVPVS
Technique: RNA Bind-n-Seq
Form: RNA
Sample: in vitro
Tested at: 100 nM
Notes: RNA with constant flanks, vertebrate orthologous sites, ends assumed
Baseline: input RNA pool
Direction: higher = stronger binding
Shared flanks, not repeated: GGGAGUUCUACAGUCCGACGAUC … CAACAGAGGAUUGAGCAUCA
Oligonucleotide	bound/input enrichment
AGCACCCUUUCAUACUGUCCUGGACCAGGGCCACAGACCGACAUCUCAAGCGGCCUGUGUUUAGAACAUUUUUUACAUCAUUGUGUCUGAGCCUCUCAGAGCCAGUGUAUAGGUCUUUGC	0.796 ratio
UUCAGGCACAACUGACUGGUUCACAGCAUUCCUUACAUAGUUAUCUGUCAAAUGCAAGUGUAGUUAAUUUUCAGGAAACAACCAGGCAGUCAUCUUUAUCCUGUAGCUCAAUUGGAGAUU	1.19 ratio
CAUGCACAUGCCGCUGUCACCAAGAGCAAACAUGGUCUCCAAACUCUCCAACUAGCCUUUUUAGUAUUCUCCCUCUCUUUCCCUUCUGUUGUUCCUCCAAUGCUUUAAAUGAUUAGAAGU	1.99 ratio
UCUGGACAACUGUCUAUGAAGGUAUAACUAUUUCAUCUCCCACCUGGAAGACCAAAAGGUCGGCUUUAUUUGUUGAUUGUAGUGGUACCCCAAAGCUGCACUGCCGUUCUUGGAUGUUUG	0.296 ratio
UUACAGUCAUUGAUGGACUCUAUUUUUUUAUUAUUACUUGGACCUUGGUCGUUUUUAUACUAGCAAUGAAAAAUGUUUUAAUUUGUUUUGUUUUUUUCUUUUUCGGGGGGGGUACGGGGU	3.17 ratio
GCUCUAGUUCUUAACAACCGACCCUCCUAAAAGAUUUAGAAAAAAGUUUACAACAUAAUCUAGUUUACAGAAAAAUCUUGUGCUAGGAUACUUUUUAAAAAGUAUUUUGAAUAUCAUUAA	0.707 ratio
UCCCAGCACUUUGAUAAAAAGUGUGGACUGGUUGCUCGUAUUUUCCUUAUUCUUUUUAAUUAGUUUUAUUAUGUAUGCUACCAUUCGAACUGAGAGCAUUCGGUGGCUAAUUCCAGGACA	1.48 ratio
GGGACGCUUUGAUGUAAAAAUUGAAGUUAAGAGCUGAUCACAAGCACAGAUCUUUCCCACUAGCCAUUGAAAAAAAGUAAAAAAGAUAACAAAAACAAAAACCUACUAGUCUUGAACAAA	2.26 ratio

Study 4
Target: RNA binding protein fox-1 homolog 2, RRM domain, GST-SBP tag (RBFOX2, Homo sapiens, UniProt O43251-10, residues 100-194)
Technique: RNA Bind-n-Seq
Form: RNA
Sample: in vitro
Tested at: 365 nM
Notes: natural RNA segment, single round, ends assumed
Baseline: no-protein control
Direction: higher = stronger binding
Shared flanks, not repeated: GGGAGUUCUACAGUCCGACGAUC … UGGAAUUCUCGGGUGCCAA
Construct (chain): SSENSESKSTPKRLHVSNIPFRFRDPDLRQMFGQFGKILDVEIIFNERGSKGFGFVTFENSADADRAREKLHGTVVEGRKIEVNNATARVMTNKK
Oligonucleotide	RBNS enrichment (R)
CUCCUCUUAUUUUAUGAUAAAAGCAAAUGUGGCCUUCUCAGUAUCAUUCGAUUGCUAUUUGAGACUUUUAAAUUAAGGUAAAGGCUGCUGGUGUUGGUACCUGUGGAUUU	0.287
CUUUGCCACUUCUGCAUUAUUUAGAAACAUACGUUAUUGUACAUUUGUAAACCAUUUACUGUCUGGGCAAUAGUGACUCCGUUUAAUAAAAGCUUCCGUAGUGCAUUGGU	0.671
GAUUUUAAGCAUUUUGUAAAUGUAUAAACUCACCUCUGGUAACAGUGGCCCAGACGCUGCUUUGUGCUAAAAGCAUGGGAAAUGUAAAGGCAGUCUUUCUCUGGGAAAUG	9.53
AAGCCCCACCUUCAGGGACCACCUGGAAUGUGUGAGGGGCUGACAGCACAGUAACGUGCAUACAUAUCUGCAGGGCUGGAAUGGAAGCUUUAAAGGUGGUAGUGAUUUUU	0.969
GAUAGAUGGUGUAUUAUUUAUGGAUCAGGCUGCUGCAUACAAACCUUGCAUACUAUUAUGCAGCUUACCUAACUCUCAGACUAUUCUGAGUAAUGCUUGCUUGCUAAUGA	1.38
GUGCAGGACUGCCUGGCCGUGGGGCAGAGGGGUUUGCCCUUCUCGGAGGGUACCUCCUGUUCCCUGUCUGAGCAUCCUGCAUGGAAGUCAAAGGAAAUCCCUUUCUUGGU	0.232
UCCCUCUCAGCAGGAGGGGUAAUGGUAGAUACAGCCUCCAUACAUCUCUUUCUCCCCUUGUUUACCCUCCAUUCCCACUCUGAUUUAGACUUCUUGAUUGUCGAUCUCUG	0.426
UGCUCAGCAUCUGGAAAUUUGGGUGUGCGAUUUUCCCUGAACACAUUGCAUACCAGUGUAAAAAGACUCUGCCUCCCCCCUUUUUGGCUUUUUUACUGGGCUUGGCUGGC	2.28

Excerpt of the above (study 2):
Change	binding fitness [natural log]
E44Y	-1.45
V35T	-1.47
Q41P	-1.52
R53P	-1.55
R30P	-1.49
